Measured values pooled from the literature.
Parts stem from different laboratories: compare values within a part only. Positions count from the first letter of the parent shown.

Set 1 — target: CCNB3, cyclin fold, Cln2 fusion (human); method: yeast growth competition, sequencing; sample: yeast; setting: weak parent motif; reference: not given; reading: higher = stronger binding; measurement: normalised enrichment score
Starting sequence: CDC6 docking peptide (human); TLKGRRLVFDNQL; partner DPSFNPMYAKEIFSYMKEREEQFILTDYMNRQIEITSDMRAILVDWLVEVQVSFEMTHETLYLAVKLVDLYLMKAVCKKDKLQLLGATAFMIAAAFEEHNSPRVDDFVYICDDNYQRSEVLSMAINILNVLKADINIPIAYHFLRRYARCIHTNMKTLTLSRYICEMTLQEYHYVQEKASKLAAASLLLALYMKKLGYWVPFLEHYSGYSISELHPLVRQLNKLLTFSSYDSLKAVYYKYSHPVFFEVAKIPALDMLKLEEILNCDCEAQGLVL
Substitution = R6V; value = 0.952
Substitution = G4I; value = 0.667
Substitution = Q12C; value = 0.126
Substitution = L7Y; value = 0.28
Substitution = N11C; value = 0.556
Substitution = G4P; value = 1.41
Substitution = V8E; value = 0.518
Substitution = G4C; value = 0.768
Substitution = F9A; value = 0.169
Substitution = F9S; value = 0.0233
Substitution = V8Y; value = 0.255
Substitution = L7R; value = 0.19
Substitution = L2E; value = -0.183
Substitution = L13Y; value = 0.364
Substitution = F9H; value = 0.0484
Substitution = L2A; value = -0.101
Substitution = T1N; value = 0.00278
Substitution = G4F; value = 0.5
Substitution = L13M; value = -0.0275
Substitution = L13P; value = 0.463

Set 2 — method: aptamer microarray, sandwich; form: DNA with 2'F-ANA; sample: in vitro; concentration: 200 nM; with: Cy3 exosite-II aptamer, 400 nM; reading: higher = stronger binding; measurement: mean fluorescence intensity; sequence: GGTTGGTGTGGTTGG
Target: Prothrombin, mature alpha-thrombin (F2, Homo sapiens, UniProt P00734)
Setting: whole 15-mer aptamer, many near background
Modification = 2'F-ANA at 1 2 3 4 8 10 14; value = 85.9 a.u.
Modification = 2'F-ANA at 2 4 5 6 7 10 13; value = 45.4 a.u.
Modification = 2'F-ANA at 5 6 10 11 12 14; value = 44.8 a.u.
Modification = 2'F-ANA at 1 2 3 5 8 9 10 11 12 15; value = 77.9 a.u.
Modification = 2'F-ANA at 1 3 5 6 7 9 10 15; value = 54.3 a.u.
Modification = 2'F-ANA at 1 2 3 6 8 9 12 13 14; value = 79.5 a.u.
Modification = 2'F-ANA at 1 2 3 4 5 6 7 8 9 11 12; value = 112 a.u.
Modification = 2'F-ANA at 1 2 3 5 6 8 12 15; value = 108 a.u.
Modification = 2'F-ANA at 2 10 11 13 15; value = 106 a.u.
Modification = 2'F-ANA at 5 9 13 14; value = 62.1 a.u.
Modification = 2'F-ANA at 3 5 6 7 8 11 13 14; value = 63.9 a.u.
Modification = 2'F-ANA at 2 3 7 8 11 12 13 14; value = 539 a.u.
Modification = 2'F-ANA at 1 3 6 7 9 10 11 12 13; value = 81.4 a.u.
Modification = 2'F-ANA at 1 2 3 4 7 9 10 11 12 13; value = 69.9 a.u.
Modification = 2'F-ANA at 6 9 15; value = 469 a.u.
Modification = 2'F-ANA at 1 3 5 6 9 13; value = 63.5 a.u.

Set 3 — method: universal PBM; form: double-stranded DNA, one strand shown; sample: in vitro; concentration: 600 nM; reading: higher = stronger binding; measurement: E-score
Target: Sal-like protein 4, full length isoform A (SALL4, Homo sapiens, UniProt Q9UJQ4, residues 1-1053)
Sequence of UniProt Q9UJQ4 (whole entry, looked up): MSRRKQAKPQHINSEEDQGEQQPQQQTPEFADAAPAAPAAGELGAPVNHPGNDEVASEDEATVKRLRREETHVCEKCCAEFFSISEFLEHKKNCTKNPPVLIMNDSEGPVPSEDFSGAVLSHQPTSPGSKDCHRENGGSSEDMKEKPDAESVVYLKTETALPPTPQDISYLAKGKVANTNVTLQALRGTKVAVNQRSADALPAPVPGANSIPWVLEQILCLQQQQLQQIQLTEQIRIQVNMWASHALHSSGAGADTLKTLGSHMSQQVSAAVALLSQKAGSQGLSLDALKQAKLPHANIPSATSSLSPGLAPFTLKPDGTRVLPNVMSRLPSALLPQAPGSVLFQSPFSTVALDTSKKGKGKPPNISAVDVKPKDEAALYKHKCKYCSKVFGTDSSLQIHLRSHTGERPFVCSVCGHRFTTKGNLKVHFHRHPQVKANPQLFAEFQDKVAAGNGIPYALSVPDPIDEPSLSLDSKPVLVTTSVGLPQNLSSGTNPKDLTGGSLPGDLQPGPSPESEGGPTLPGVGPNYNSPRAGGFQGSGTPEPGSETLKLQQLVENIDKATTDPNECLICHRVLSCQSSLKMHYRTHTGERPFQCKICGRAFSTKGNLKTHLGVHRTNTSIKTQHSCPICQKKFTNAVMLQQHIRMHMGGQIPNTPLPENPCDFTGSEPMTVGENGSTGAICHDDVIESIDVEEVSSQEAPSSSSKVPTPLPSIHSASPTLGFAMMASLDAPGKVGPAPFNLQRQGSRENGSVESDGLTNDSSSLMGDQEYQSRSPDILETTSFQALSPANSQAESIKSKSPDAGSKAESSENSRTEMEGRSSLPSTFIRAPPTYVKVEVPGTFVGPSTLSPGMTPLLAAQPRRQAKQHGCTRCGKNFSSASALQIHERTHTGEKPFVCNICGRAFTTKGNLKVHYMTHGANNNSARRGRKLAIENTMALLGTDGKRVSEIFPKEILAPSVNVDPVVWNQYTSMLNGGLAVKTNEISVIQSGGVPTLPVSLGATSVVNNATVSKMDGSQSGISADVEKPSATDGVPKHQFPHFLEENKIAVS
Setting: 8-mer, flanks averaged, mean of replicates
Sequence = ATACCACA; value = 0.121
Sequence = AGGCATAG; value = -0.0197
Sequence = AAGAAAAG; value = 0.0876
Sequence = CCGGGGCC; value = -0.418
Sequence = AGGGTGGC; value = -0.201
Sequence = CCAGAACG; value = -0.0435
Sequence = GTTTTCCA; value = 0.217
Sequence = TCGGGACA; value = -0.168
Sequence = GCAAAAAC; value = 0.138
Sequence = CAACTTTA; value = 0.219
Sequence = AATAGAAA; value = 0.201
Sequence = TGAAGTCA; value = 0.0481
Sequence = ACAAGCGC; value = -0.142
Sequence = ACCTATGA; value = 0.038
Sequence = GTTTTAGA; value = 0.117
Sequence = AGCGATAT; value = 0.263
Sequence = GATCTTAC; value = 0.0304
Sequence = ATACTAGC; value = 0.0479
Sequence = CGTGGGAA; value = -0.133
Sequence = ATCGATAG; value = 0.206
Sequence = GTTACGGA; value = -0.0907
Sequence = CCTCCGTA; value = -0.164
Sequence = CTCTTTCC; value = -0.258
Sequence = GGTTGCAC; value = -0.262

Set 4 — target: UBE2H UBC core domain (UniProt P62256); method: yeast two-hybrid; sample: yeast; setting: mostly zero background; reference: not given; reading: higher = stronger interaction; measurement: lacZ reporter activity
Sequence of UniProt P62256 (whole entry, looked up): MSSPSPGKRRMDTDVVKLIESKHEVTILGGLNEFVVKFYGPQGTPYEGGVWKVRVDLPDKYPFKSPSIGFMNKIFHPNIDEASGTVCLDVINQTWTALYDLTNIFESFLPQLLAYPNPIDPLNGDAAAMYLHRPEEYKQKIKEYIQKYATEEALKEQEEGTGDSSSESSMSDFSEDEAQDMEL
B1: SYTL4 RING domain (UniProt Q96C24); chain RGSQHYSDRTCARCQESLGRLSPKTNTCRGCNHLVCRDCRIQESNGTWRCKVCAKEIELKKAT
B2: RNF133 RING domain (UniProt Q8WVZ7); chain DEEINPNGDSCVICFERYKPNDIVRILTCKHFFHKNCIDPWILPHGTCPICKCDILKVLGIQ
B3: DZIP3 RING domain (UniProt Q86Y13); chain PDEEEEEEEPCVICHENLSPENLSVLPCAHKFHAQCIRPWLMQQGTCPTCRLHVLLPEEFP
B4: DTX2 RING domain (UniProt Q86UW9); chain EELKVPPDEDCIICMEKLSTASGYSDVTDSKAIGSLAVGHLTKCSHAFHLLCLLAMYCNGNKDGSLQCPSCKTIYGEKTGTQ
B5: RBCK1 RING domain (UniProt Q9BYM8); chain SLVLNTEPAECPVCYSVLAPGEAVVLRECLHTFCRECLQGTIRNSQEAEVSCPFIDNTYSCSGKLLEREIK
B6: MDM4 RING domain (UniProt O15151); chain MEDCQNLLKPCSLCEKRPRDGNIIHGRTGHLVTCFHCARRLKKAGASCPICKKEIQLVIKVF
B7: TRIM62 RING domain (UniProt Q9BVG3); chain MACSLKDELLCSICLSIYQDPVSLGCEHYFCRRCITEHWVRQEAQGARDCPECRRTFAEPALAP
B8: RNF121 RING domain (UniProt Q9H920); chain MPTKHLSDSVCAVCGQQIFVDVSEEGIIENTYRLSCNHVFHEFCIRGWCIVGKKQTCPYCKEKVDLKRMFS
B9: MAP3K1 RING domain (UniProt Q13233); chain NSIKDEEEQMCPICLLGMLDEESLTVCEDGCRNKLHHHCMSIWAEECRRNREPLICPLCRSKWRSHDFYS
Sequence = YQNEVDDDLVCHICLQPLLQPLDTPCGHTFCYKCLRNFLQEKDFCPLDRKRLHFKLCKK (LNX2 RING domain (UniProt Q8N448)); value = 0
Sequence = B1 (SYTL4 RING domain); value = 0
Sequence = FDGDVDPDLKCALCHKVLEDPLTTPCGHVFCAGCVLPWVVQEGSCPARCRGRLSAKELN (PDZRN3 RING domain (UniProt Q9UPQ7)); value = 0
Sequence = AVPSGLEENLCKICMDSPIDCVLLECGHMVTCTKCGKRMNECPICRQYVIRAVHVF (RFFL RING domain (UniProt Q8WZ73)); value = 0
Sequence = B2 (RNF133 RING domain); value = 0
Sequence = B3 (DZIP3 RING domain); value = 0
Sequence = KETIKKTTKPCPRCHVPVEKNGGCMHMKCPQPQCRLEWCWNCGCEWNRVCMG (PRKN RING domain (UniProt O60260)); value = 0
Sequence = B4 (DTX2 RING domain); value = 0
Sequence = B5 (RBCK1 RING domain); value = 0
Sequence = PEDRESLKSACVVCLSSFKSCVFLECGHVCSCTECYRALPEPKKCPICRQAITRVIPLY (MUL1 RING domain (UniProt Q969V5)); value = 0
Sequence = AMYLQENGIDCPKCKFSYALARGGCMHFHCTQCRHQFCSGCYNAFYAKNKC (RNF31 RING domain (UniProt Q96EP0)); value = 0
Sequence = B6 (MDM4 RING domain); value = 0
Sequence = NLSELTPYILCSICKGYLIDATTITECLHTFCKSCIVRHFYYSNRCPKCNIVVHQTQPLY (PCGF6 RING domain (UniProt Q9BYE7)); value = 0
Sequence = B7 (TRIM62 RING domain); value = 0
Sequence = B8 (RNF121 RING domain); value = 0
Sequence = B9 (MAP3K1 RING domain); value = 0

Excerpt of the above (set 1):
Substitution = Q12C; value = 0.126
Substitution = L7Y; value = 0.28
Substitution = N11C; value = 0.556
Substitution = G4P; value = 1.41
Substitution = V8E; value = 0.518
Substitution = G4C; value = 0.768
Substitution = F9A; value = 0.169
Substitution = F9S; value = 0.0233
Substitution = V8Y; value = 0.255
Substitution = L7R; value = 0.19
Substitution = L2E; value = -0.183
Substitution = L13Y; value = 0.364
Substitution = F9H; value = 0.0484
